Experimental data pooled from the literature.
Each numbered part is a random draw from the data of one study; scales do not carry over between parts.

Series 1 — method: universal PBM; form: double-stranded DNA, one strand shown; sample: in vitro; concentration: 600 nM; reading: higher = stronger binding
Target: Sal-like protein 4, full length isoform A (SALL4, Homo sapiens, UniProt Q9UJQ4, residues 1-1053)
Chain of UniProt Q9UJQ4 (whole entry, looked up): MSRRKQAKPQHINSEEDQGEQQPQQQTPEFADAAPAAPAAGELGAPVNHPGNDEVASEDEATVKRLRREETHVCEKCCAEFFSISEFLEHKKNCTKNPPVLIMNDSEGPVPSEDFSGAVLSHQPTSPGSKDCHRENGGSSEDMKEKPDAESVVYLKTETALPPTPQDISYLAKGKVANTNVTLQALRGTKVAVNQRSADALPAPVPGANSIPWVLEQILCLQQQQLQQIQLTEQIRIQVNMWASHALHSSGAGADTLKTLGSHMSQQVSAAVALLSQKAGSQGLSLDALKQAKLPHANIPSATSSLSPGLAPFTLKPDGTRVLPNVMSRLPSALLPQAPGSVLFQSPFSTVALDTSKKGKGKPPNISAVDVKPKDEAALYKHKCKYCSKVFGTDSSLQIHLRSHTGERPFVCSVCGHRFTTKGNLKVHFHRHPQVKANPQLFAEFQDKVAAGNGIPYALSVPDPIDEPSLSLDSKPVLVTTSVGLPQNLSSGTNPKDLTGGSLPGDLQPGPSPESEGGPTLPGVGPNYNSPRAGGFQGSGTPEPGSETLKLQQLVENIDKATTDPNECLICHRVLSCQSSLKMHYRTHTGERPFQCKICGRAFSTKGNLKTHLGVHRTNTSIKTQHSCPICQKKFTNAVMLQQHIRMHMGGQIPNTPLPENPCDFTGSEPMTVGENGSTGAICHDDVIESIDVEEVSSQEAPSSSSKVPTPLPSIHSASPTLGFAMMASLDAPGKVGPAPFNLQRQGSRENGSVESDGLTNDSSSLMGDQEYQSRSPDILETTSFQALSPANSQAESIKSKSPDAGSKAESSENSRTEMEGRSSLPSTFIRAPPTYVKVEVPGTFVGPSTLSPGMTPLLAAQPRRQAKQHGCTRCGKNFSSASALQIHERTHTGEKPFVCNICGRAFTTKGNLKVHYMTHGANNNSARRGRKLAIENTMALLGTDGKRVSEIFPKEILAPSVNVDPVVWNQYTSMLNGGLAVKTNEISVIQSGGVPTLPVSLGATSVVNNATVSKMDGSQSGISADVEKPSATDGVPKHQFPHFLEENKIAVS
Setting: 8-mer, flanks averaged, mean of replicates
`CATCAGAA` has an E-score of 0.191.
`GGTCGGAA` gave an E-score of -0.146.
`GTGAAGGA` gave an E-score of 0.0828.
For `AAGGTAAC`, the E-score was 0.0806.
The E-score of `ACCGGTAA` is reported as -0.0359.
`CGTCAGAA` has an E-score of -0.0421.
`CGCCGATA` has an E-score of -0.136.
For `ATAAGTGC`, the E-score was 0.114.

Series 2 — method: protein-binding microarray; form: double-stranded DNA, one strand shown; sample: in vitro; concentration: not given; reading: higher = stronger binding
Target: Myc proto-oncogene protein, bHLH-zipper, MAX partner unstated (MYC, Homo sapiens, UniProt P01106, residues 368-449)
Chain of UniProt P01106 (368-449, looked up): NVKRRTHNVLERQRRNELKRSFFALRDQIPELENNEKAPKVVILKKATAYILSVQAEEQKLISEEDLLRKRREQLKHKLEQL
Setting: k-mer, scored over probes, only values ≥0.25
With `GTGCGCCA` the E-score was 0.288.
With `ACATCGTG` the E-score was 0.408.
For `ACACGAGG`, the E-score was 0.472.
`ACGTCCAC` has an E-score of 0.253.
`GTGGAGCA` gave an E-score of 0.268.
For `CCCTCCCA`, the E-score was 0.35.

Series 3 — method: protein-binding microarray; form: double-stranded DNA, one strand shown; sample: in vitro; concentration: 2200 nM top; setting: 60-bp whole probe; added: salmon DNA 0.4 mg/ml; reference: random background probes; reading: higher = stronger binding; all sequences stand within: GCCTAGCAC … GTCTTGATTCGCTTGACGCTGCTG
Target: Interferon regulatory factor 7, full length, phosphomimetic (IRF7, Homo sapiens, UniProt Q92985, residues 1-503, S471D/S472D/S475D/S476D/S477D/S483D/S484D/S487D)
Chain of UniProt Q92985 (whole entry, unmodified, looked up): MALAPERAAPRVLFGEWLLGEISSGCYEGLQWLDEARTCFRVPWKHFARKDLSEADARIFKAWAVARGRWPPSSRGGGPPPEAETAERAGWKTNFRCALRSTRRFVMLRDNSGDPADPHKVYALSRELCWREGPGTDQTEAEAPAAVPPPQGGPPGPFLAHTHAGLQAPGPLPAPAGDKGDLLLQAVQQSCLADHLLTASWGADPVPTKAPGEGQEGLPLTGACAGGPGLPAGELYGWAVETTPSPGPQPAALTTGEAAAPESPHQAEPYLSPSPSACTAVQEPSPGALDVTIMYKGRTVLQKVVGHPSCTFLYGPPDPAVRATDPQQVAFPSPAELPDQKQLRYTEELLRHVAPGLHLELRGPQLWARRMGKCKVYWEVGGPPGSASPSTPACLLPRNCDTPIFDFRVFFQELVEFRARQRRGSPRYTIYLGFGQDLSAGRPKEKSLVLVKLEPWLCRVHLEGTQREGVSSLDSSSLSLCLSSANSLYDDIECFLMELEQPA
Under “fitted relative affinity”, `TTAGGACTGGGCATCGGTTAGTGCTAG` is recorded as -0.917 z-score.
`TCACTGATCCATTTTGGACTGTGCTAG`: “fitted relative affinity” 0.767 z-score.
`CCATCGATTTCTCTTTCCCAAGTGCTA` — result for “fitted relative affinity”: 3.47 z-score.
For `GAGTGTTTCTTCTGCTGACAGTGCTAG`, “fitted relative affinity” read 1.14 z-score.
For `TTAGTACTGGGTCTCGGTTAGTGCTAG`, “fitted relative affinity” read 0.53 z-score.
Under “fitted relative affinity”, `GTGAGTCCCAAGAATGGTGTGGTGCTA` is recorded as -0.352 z-score.
For `GACGAACTGAGTATCGAGAAGTGCTAG`, “fitted relative affinity” read -0.378 z-score.

Mixed results
For `PhoQ, residues 284 288 289 292 302 303 TLSLKA`, the fold induction was 3.36 (PhoP, residues 12 14 15 18 19 NQGLL (Escherichia coli, UniProt P23836); Sort-seq, item: YFP reporter; E. coli; PhoQ-PhoP variant library, added: 10 µM Mg2+; reference: high Mg2+ state, higher = stronger signaling).

Some of these lines once more (series 3):
For `TTAGTACTGGGTCTCGGTTAGTGCTAG`, “fitted relative affinity” read 0.53 z-score.
Under “fitted relative affinity”, `GTGAGTCCCAAGAATGGTGTGGTGCTA` is recorded as -0.352 z-score.
